Results from different studies.
Each line is one published result; not all experiments were run side by side. Values joined by “and” are separate records of one study, mostly repeats; a detail may differ. ± marks the error that the study gave. Bridge positions count the residues as written; N and C are the ends. Ends that are not written are not given here.
MAL12: Alpha-glucosidase MAL12 (MAL12, Saccharomyces cerevisiae S288c, UniProt P53341)
UniProt P53341, sequence (whole entry, looked up): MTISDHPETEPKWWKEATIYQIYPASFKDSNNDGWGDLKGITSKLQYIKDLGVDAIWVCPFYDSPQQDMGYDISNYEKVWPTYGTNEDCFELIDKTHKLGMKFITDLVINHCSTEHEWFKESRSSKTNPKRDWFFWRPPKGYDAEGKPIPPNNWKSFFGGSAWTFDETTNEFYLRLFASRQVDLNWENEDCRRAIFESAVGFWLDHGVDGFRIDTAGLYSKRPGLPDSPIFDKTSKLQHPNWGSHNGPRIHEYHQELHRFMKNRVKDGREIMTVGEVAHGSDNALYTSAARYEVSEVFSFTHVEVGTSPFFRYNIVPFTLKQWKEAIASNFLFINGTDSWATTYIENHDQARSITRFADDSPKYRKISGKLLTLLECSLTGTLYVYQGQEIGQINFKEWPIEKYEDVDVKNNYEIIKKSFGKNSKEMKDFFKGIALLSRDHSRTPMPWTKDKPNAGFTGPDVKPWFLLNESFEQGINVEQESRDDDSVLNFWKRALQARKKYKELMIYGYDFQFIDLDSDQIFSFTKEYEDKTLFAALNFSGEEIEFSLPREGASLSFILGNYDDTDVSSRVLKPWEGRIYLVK
PARP16: Protein mono-ADP-ribosyltransferase PARP16 (PARP16, Homo sapiens, UniProt Q8N5Y8)
UniProt Q8N5Y8, sequence (whole entry, looked up): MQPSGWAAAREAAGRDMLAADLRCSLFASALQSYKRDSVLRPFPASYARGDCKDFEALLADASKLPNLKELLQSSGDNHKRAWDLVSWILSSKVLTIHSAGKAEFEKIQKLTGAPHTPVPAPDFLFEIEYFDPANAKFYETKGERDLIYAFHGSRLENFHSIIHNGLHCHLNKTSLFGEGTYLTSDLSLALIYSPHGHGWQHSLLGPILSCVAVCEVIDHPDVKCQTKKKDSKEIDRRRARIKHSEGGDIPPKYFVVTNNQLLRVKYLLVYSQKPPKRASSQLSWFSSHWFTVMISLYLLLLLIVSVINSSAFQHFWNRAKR
SLC22A5: Organic cation/carnitine transporter 2 (SLC22A5, Homo sapiens, UniProt O76082)
UniProt O76082, sequence (whole entry, looked up): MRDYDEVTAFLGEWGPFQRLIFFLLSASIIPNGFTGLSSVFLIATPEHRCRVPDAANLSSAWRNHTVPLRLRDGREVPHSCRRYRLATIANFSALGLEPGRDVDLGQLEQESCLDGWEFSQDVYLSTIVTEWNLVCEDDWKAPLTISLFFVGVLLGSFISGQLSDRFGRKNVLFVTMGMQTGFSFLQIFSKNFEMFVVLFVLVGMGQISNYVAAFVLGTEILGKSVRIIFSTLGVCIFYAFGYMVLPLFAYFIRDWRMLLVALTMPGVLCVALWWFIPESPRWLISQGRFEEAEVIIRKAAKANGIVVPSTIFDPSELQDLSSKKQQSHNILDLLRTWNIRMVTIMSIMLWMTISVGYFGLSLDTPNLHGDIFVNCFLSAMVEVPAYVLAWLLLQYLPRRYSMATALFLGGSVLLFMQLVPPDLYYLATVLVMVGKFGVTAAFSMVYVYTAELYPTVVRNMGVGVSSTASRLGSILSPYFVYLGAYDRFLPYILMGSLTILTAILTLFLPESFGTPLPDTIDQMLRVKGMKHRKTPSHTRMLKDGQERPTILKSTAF
AKR1C3: Aldo-keto reductase family 1 member C3 (AKR1C3, Homo sapiens, UniProt P42330)
UniProt P42330, sequence (whole entry, looked up): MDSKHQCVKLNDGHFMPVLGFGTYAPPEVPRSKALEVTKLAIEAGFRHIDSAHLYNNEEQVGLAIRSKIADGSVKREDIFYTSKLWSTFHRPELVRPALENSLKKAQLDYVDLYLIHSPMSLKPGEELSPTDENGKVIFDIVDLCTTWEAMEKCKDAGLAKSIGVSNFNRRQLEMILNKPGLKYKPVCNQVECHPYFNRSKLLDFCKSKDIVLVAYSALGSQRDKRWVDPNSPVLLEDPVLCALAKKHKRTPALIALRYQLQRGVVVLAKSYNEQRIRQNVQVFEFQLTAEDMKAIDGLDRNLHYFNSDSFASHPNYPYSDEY
UniProt P34972, sequence (whole entry, looked up): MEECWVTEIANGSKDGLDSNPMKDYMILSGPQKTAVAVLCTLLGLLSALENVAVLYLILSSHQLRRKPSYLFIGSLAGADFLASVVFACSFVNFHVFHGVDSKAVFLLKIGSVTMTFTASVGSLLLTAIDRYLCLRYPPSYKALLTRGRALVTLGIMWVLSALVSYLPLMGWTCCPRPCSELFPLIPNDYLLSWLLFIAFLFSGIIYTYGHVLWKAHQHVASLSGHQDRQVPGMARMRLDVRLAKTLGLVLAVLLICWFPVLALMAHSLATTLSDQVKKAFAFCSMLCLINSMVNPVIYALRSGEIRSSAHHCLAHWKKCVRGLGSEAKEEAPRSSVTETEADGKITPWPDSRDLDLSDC
UniProt P35372, sequence (whole entry, looked up): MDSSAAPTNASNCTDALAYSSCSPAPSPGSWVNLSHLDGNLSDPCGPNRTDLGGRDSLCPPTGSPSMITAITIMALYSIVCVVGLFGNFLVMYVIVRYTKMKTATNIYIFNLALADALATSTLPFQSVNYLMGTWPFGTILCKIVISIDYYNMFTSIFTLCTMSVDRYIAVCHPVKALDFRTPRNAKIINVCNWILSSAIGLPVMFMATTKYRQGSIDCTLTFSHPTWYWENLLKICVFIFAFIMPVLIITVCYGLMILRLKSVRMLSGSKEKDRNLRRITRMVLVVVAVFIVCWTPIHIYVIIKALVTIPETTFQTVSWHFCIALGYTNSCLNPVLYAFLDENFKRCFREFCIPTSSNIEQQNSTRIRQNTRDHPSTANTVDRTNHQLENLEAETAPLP
UniProt P08424, sequence (whole entry, looked up): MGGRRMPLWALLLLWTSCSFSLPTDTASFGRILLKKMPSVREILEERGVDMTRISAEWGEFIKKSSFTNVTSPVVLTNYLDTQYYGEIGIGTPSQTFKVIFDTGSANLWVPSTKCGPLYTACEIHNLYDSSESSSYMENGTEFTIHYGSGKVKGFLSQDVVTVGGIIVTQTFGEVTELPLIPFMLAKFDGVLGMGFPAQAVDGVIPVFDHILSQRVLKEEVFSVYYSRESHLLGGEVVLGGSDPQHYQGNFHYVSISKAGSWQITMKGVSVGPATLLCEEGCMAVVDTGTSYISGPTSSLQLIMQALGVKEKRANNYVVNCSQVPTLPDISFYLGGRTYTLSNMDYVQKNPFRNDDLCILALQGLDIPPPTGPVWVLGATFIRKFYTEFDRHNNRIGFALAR
UniProt P81947, sequence (whole entry, looked up): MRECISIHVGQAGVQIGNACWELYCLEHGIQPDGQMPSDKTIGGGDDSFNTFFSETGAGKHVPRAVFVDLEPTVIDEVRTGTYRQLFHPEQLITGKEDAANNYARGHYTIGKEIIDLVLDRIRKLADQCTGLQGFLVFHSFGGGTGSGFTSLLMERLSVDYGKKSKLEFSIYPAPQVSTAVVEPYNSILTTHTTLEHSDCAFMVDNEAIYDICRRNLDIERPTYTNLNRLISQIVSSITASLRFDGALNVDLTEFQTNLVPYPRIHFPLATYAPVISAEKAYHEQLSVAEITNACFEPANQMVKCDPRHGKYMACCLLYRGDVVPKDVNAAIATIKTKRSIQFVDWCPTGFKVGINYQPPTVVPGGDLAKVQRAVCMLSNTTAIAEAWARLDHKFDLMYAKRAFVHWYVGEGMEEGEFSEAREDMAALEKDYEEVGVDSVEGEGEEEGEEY
UniProt Q6B856, sequence (whole entry, looked up): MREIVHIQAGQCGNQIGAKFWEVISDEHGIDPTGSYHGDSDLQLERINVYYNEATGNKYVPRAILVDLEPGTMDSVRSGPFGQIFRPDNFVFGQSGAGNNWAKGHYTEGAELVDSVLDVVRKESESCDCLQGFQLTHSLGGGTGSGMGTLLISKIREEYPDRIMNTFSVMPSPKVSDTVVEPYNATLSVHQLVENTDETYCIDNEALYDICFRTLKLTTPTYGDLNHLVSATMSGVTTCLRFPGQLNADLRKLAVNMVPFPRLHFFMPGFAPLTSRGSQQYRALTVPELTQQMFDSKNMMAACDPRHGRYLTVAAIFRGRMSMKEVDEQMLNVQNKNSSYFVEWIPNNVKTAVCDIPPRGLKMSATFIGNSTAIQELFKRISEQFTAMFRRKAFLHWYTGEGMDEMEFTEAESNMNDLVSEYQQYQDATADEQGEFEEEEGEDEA

Molecule = O=C(O)c1ccccc1Nc1cccc(C(F)(F)F)c1; target = Trpm8 (Mus musculus, UniProt Q8R4D5); test = ion current, two-electrode voltage clamp; test system = Xenopus oocytes; conditions = 100 µM, +100 mV, added: menthol 100 µM; inhibition = 16%
Molecule = COc1cc(-c2nc(N)sc2-c2ccc3ccccc3c2)cc(OC)c1OC; target = Tubulin alpha-1B chain/TUBB2B, colchicine site (Bos taurus, UniProt P81947+Q6B856); test = [3H]colchicine binding; conditions = 1 5 5 µM; inhibition = 94 ± 0.49%
Molecule = COc1cc2oc(-c3ccc(O)cc3)cc(=O)c2c(O)c1OC; target = MAL12; test = enzyme activity, inhibitor; conditions = 250 µM; inhibition = > 99%
Molecule = O=C1CCCc2ccc(F)cc2N1; target = PARP16; test = enzyme activity, inhibitor; conditions = 10 µM; inhibition = 93.5%
Molecule = C[N+](C)(C)C[C@@H](O)CC(=O)[O-]; target = SLC22A5; test = transporter uptake, inhibitor; conditions = 1 µM; inhibition = 6.98%
Molecule = COc1cc(-c2cc(=O)c3ccc(O)c(OC)c3o2)cc(O)c1OC; target = MAL12; test = enzyme activity, inhibitor, absorbance; conditions = 25 µM; inhibition = 20%
Molecule = C[C@@]12CC[C@@H]3c4cc(Br)c(O)c(Cl)c4CC[C@H]3[C@@H]1CCC2=O; target = AKR1C3; test = enzyme activity, inhibitor, absorbance; conditions = 100 µM, pH 9; inhibition = 89.4%
Molecule = COc1ccc(-c2cc(=O)c3c(O)cc(OC)cc3o2)cc1; target = MAL12; test = enzyme activity, inhibitor, absorbance; conditions = 50 µM; inhibition = 3.7%
Molecule = Oc1ccc(/C=C/c2cccc(O)c2)cc1; target = OPRM1 (Homo sapiens, UniProt P35372); test = radioligand binding; conditions = 10 µM, 60 min, added: [3H]DAMGO; inhibition = 16.7%
Molecule = COc1c(-c2ccc(O)cc2)oc2c(OC)c(O)cc(O)c2c1=O; target = MAL12; test = enzyme activity, inhibitor, absorbance; conditions = 1 µM; inhibition = 24.7%
Molecule = C[C@@]12CC[C@@H]3c4cc(Cl)c(O)c(Br)c4CC[C@H]3[C@@H]1CCC2=O; target = AKR1C3; test = enzyme activity, inhibitor, absorbance; conditions = 100 µM, pH 9; inhibition = 88%
Molecule = Cc1ccc(O)c(C=NNC(=S)NCc2ccccc2)c1; target = AKR1B1 (Homo sapiens, UniProt P15121); test = enzyme activity, inhibitor, absorbance; conditions = 100 µM; inhibition = < 50%
Molecule = COCCCOc1cc(C[C@@H](C[C@H](N)[C@@H](O)C[C@H](C(=O)NCC(C)(C)C(N)=O)C(C)C)C(C)C)ccc1OC; target = Renin (Rattus norvegicus, UniProt P08424); test = angiotensin I formation; test system = NRK-52E nuclear lysate; conditions = 1 µM, added: trypsin-activated prorenin; inhibition = 93%
Molecule = COc1c(O)ccc2c(=O)cc(-c3ccccc3)oc12; target = MAL12; test = enzyme activity, inhibitor; conditions = 250 µM; inhibition = > 99%
Molecule = CGHHHRDYC (disulfide 1-9 (inferred)) (disulfide); target = maltase-glucoamylase (rat intestine); test = enzyme activity; conditions = 1.2 mM, 120 min, pH 6.8, 37 °C, added: 4-MUG 0.3 mM; inhibition = 12%
Molecule = O=S1(=O)c2ccc(F)cc2Oc2cc(OCC(F)(F)F)ccc21; target = MAOA (Homo sapiens, UniProt P21397); test = [11C]clorgyline binding, PET; test system = human; conditions = oral, 60 mg single dose, 2 h; inhibition = 46.8 ± 22.6%
Molecule = O=C1NCC(c2ccccc2)C(O)c2ccccc21 (racemic); target = PARP16; test = enzyme activity, inhibitor; conditions = 10 µM; inhibition = 0%
Molecule = CCc1c(C(=O)NCCc2ccc(N(CC)CC)cc2)[nH]c2ccc(Cl)cc12; target = CNR2 (Homo sapiens, UniProt P34972); test = calcium signal, antagonist; conditions = 10 µM; inhibition = -44% and -44.4%
Molecule = C[C@@]12CC[C@@H]3c4cc(I)c(O)c(Cl)c4CC[C@H]3[C@@H]1CCC2=O; target = AKR1C3; test = enzyme activity, inhibitor, absorbance; conditions = 100 µM, pH 9; inhibition = 72.2%
Molecule = COc1ccc2c(=O)c(OC)c(-c3ccccc3)oc2c1; target = MAL12; test = enzyme activity, inhibitor; conditions = 250 µM; inhibition = > 99%
Molecule = CC[C@]1(O)C[C@H]2CN(CCc3c([nH]c4ccccc34)[C@@](C(=O)OC)(c3cc4c(cc3OC)N(C=O)[C@H]3[C@@](O)(C(=O)OC)[C@H](OC(C)=O)[C@]5(CC)C=CCN6CC[C@]43[C@@H]65)C2)C1; target = SLC22A5; test = transporter uptake, inhibitor; conditions = 20 µM; inhibition = 48.4%
Molecule = COc1ccc(-c2cc(=O)c3ccc(O)cc3o2)cc1; target = MAL12; test = enzyme activity, inhibitor, absorbance; conditions = 25 µM; inhibition = 7.4%
Molecule = C[C@@]12CC[C@@H]3c4cc(I)c(O)c(Br)c4CC[C@H]3[C@@H]1CCC2=O; target = AKR1C3; test = enzyme activity, inhibitor, absorbance; conditions = 10 µM, pH 9; inhibition = 40%
Molecule = COc1c(O)cc(O)c2c(=O)cc(-c3ccc(O)cc3)oc12; target = MAL12; test = enzyme activity, inhibitor, absorbance; conditions = 10 µM; inhibition = 20.5%
Molecule = C[C@@]12CC[C@@H]3c4cc(Br)c(O)c(I)c4CC[C@H]3[C@@H]1CCC2=O; target = AKR1C3; test = enzyme activity, inhibitor, absorbance; conditions = 10 µM, pH 9; inhibition = 50%
Molecule = COc1ccc2c(c1)-c1c(sc3ccc(OC)cc13)C2=O; target = DYRK1A (Homo sapiens, UniProt Q13627); test = enzyme activity, inhibitor, radiometric; conditions = 1 µM; inhibition = 25 to 32%

For quick reference, copied from above:
Molecule = O=S1(=O)c2ccc(F)cc2Oc2cc(OCC(F)(F)F)ccc21; target = MAOA (Homo sapiens, UniProt P21397); test = [11C]clorgyline binding, PET; test system = human; conditions = oral, 60 mg single dose, 2 h; inhibition = 46.8 ± 22.6%
Molecule = O=C1NCC(c2ccccc2)C(O)c2ccccc21 (racemic); target = PARP16; test = enzyme activity, inhibitor; conditions = 10 µM; inhibition = 0%
